Measured values collected from several papers.
Protocols differ between the studies behind these lines. “And” joins repeats or separate records; there may be more than shown. Numbers after ± are the reported error.
ERN1 RNase domain: Serine/threonine-protein kinase/endoribonuclease IRE1, RNase domain (ERN1, Homo sapiens, UniProt O75460)
PDGFRB: Platelet-derived growth factor receptor beta (PDGFRB, Homo sapiens, UniProt P09619)
CTSL: Procathepsin L (CTSL, Homo sapiens, UniProt P07711)
WRN: Bifunctional 3'-5' exonuclease/ATP-dependent helicase WRN (WRN, Homo sapiens, UniProt Q14191)
KCNN4: Intermediate conductance calcium-activated potassium channel protein 4 (KCNN4, Homo sapiens, UniProt O15554)
KDR: Vascular endothelial growth factor receptor 2 (KDR, Homo sapiens, UniProt P35968)
ALDH1A1: Aldehyde dehydrogenase 1A1 (ALDH1A1, Homo sapiens, UniProt P00352)

NC1CCC(Nc2nccc(-c3cccnc3Oc3ccc(NS(=O)(=O)c4ccccc4Cl)c(F)c3)n2)CC1 (centres unmarked) — IC50 (ERN1 RNase domain; RNase activity, inhibitor; added: XBP1 mini-substrate): 22 ± 9 nM
CC(/C=C/C(=O)NO)=C\[C@@H](C)C(=O)c1ccc(N(C)C)cc1 — IC50 (Tyrosine-protein phosphatase non-receptor type 11 (PTPN11, Homo sapiens, UniProt Q06124, D61V); enzyme activity, inhibitor, fluorescence): > 50000 nM
CC(C)(C)OC(=O)N1CCC(C(=O)N[C@@H](Cc2ccc3ccccc3c2)C(=O)O)(c2ccc3ccccc3c2)CC1 — IC50 (Gag-Pol polyprotein, integrase (gag-pol, Human immunodeficiency virus 1, UniProt P12497); integrase catalytic activity, inhibitor, HTRF; HIV-1; added: LEDGF/p75): 45000 nM
COc1ccc(Nc2nc(N)c(C(C)=O)s2)cc1 — IC50 (GSK3 (Trypanosoma brucei, UniProt Q388M1); enzyme activity, inhibitor, radiometric): 1000 nM
O=C(O)c1ccc(O)cc1 — IC50 (Alpha-glucosidase MAL12 (MAL12, Saccharomyces cerevisiae S288c, UniProt P53341); enzyme activity, inhibitor, absorbance): > 100000 nM
COc1cc2nccc(Oc3ccc(NC(=S)Nc4ccc(F)cc4)c(Cl)c3)c2cc1C(N)=O — IC50 (PDGFRB): 24.7 nM
O=c1c2ccccc2[s+]([O-])n1-c1ccccc1 (centres unmarked) — IC50 (Histone deacetylase 5 (HDAC5, Homo sapiens, UniProt Q9UQL6); enzyme activity, inhibitor): > 10000 nM
COc1cc2ncnc(Oc3ccc(Nc4nccc5[nH]cc(-c6ccccc6F)c(=O)c45)cc3F)c2cc1OC — IC50 (Hepatocyte growth factor receptor (MET, Homo sapiens, UniProt P08581); kinase activity, inhibitor, HTRF): 28.8 nM
CC(C)CCN(c1nc(C#N)nc(NC2COC2)n1)C(C)c1ccc(F)cc1 (centres unmarked) — IC50 (CTSL; enzyme activity, inhibitor, fluorescence): 23 nM
Cc1ccc(NC(=O)CNS(=O)(=O)c2nc(-c3ccc(OC(F)(F)F)cc3)cc(C(F)(F)F)n2)cc1 — IC50 (WRN; DNA unwinding, inhibitor, TAMRA dequenching; 10 nM full-length enzyme, 500 nM trap DNA, added: 50 nM DNA substrate, 60 µM ATP): 57 nM
CC(C)CCN(Cc1ccccc1C#N)c1nc(C#N)nc(N2CCOCC2)n1 — IC50 (CTSL; enzyme activity, inhibitor, fluorescence): 56 nM
CC(C)S(=O)(=O)c1ccc(S(=O)(=O)C(C)C)c(O)c(=O)c1O — IC50 (Ribonuclease H1 (Homo sapiens, UniProt O60930); enzyme activity, inhibitor): > 500000 nM
O=C(O[C@H](CO)C(F)(F)F)N1C[C@@H]2[C@H](C1)[C@H]2c1ccn(-c2cc(F)ccn2)n1 — IC50 (Monoglyceride lipase (Mgll, Mus musculus, UniProt O35678); enzyme activity, ABPP with FP-rhodamine; mouse brain lysate; 30 min preincubation, 37 °C): 7.5 nM
C1=[N+]2CCCC[N+]3=Cc4ccc5[n]4[Au-]23[n]2c1ccc2-c1nc2ccccc2nc1-5.F[P-](F)(F)(F)(F)F — IC50 (DNA topoisomerase 1 (TOP1, Homo sapiens, UniProt P11387); DNA relaxation, inhibitor; added: supercoiled DNA): 49 nM
CCn1c(-c2cc(NC(=O)c3cnccn3)n[nH]2)cc2ccc(OC)cc21 — IC50 (Casein kinase II subunit alpha' (CSNK2A2, Homo sapiens, UniProt P19784)): 110 ± 0.35 nM
COc1cc2nccc(Oc3ccc(NC(=S)N4CCC(F)(F)C4)c(Cl)c3)c2cc1C(N)=O — IC50 (PDGFRB): 974 nM
CCC(c1nnnn1Cc1cccs1)N1CCN(c2nc3cc(N(C)C)cc(F)c3s2)CC1 (centres unmarked) — IC50 (Deoxyribonuclease-1 (DNASE1, Bos taurus, UniProt P00639); enzyme activity, inhibitor, fluorescence DNA degradation; pH 7.5, added: FITC-labelled DNA substrate): 32000 nM
Oc1cc2c(cc1O)C(c1ccccc1)CNCC2 (racemic) — IC50 (Carbamate kinase (Giardia intestinalis, UniProt A8BB85); enzyme activity, inhibitor, coupled absorbance): 1790 nM
COc1ccc(-c2cc(C(F)(F)F)nc(S(=O)(=O)NCC(=O)Nc3ccc(C)cc3)n2)cc1 — IC50 (WRN; ATPase activity, inhibitor, ADP-Glo; added: ATP 1 mM): > 50000 nM
CCOC(=O)C(C(=O)OCC)C(c1ccccc1)(c1ccccc1)c1ccccc1 — IC50 (KCNN4; ion current, inhibitor, patch clamp): 4000 nM
CC(=O)NCC(=O)N[C@@H](CC(=O)O)C(=O)N[C@@H](Cc1ccc(O)cc1)C(=O)N[C@@H](CO)C(=O)N[C@@H](Cc1cnc[nH]1)C(=O)N[C@H]1CSSC[C@@H](C(=O)N[C@H](C(=O)N[C@@H](Cc2ccc(O)cc2)C(=O)N2CCC[C@H]2C(=O)N[C@@H](CC(=O)O)C(=O)N2CCC[C@H]2C(=O)N[C@@H](CCC(=O)O)C(=O)NCC(=O)NCC(=O)NCC(N)=O)[C@@H](C)O)NC(=O)[C@H](CCCCN)NC(=O)[C@H](Cc2c[nH]c3ccccc23)NC(=O)[C@H](Cc2c[nH]c3ccccc23)NC(=O)[C@@H]2CCCN2C(=O)[C@H](Cc2ccc(O)cc2)NC(=O)[C@H](Cc2ccc(O)cc2)NC(=O)[C@H](CCCNC(=N)N)NC(=O)[C@H](CC(C)C)NC(=O)[C@@H]2CCCN2C(=O)[C@H](CO)NC1=O — IC50 (Angiotensin-converting enzyme (Mus musculus, UniProt P09470); enzyme activity, inhibitor; lysate): 1580 nM
N#Cc1nc(N2CCOCC2)nc(N(Cc2ccc(F)cc2)CC2CCCC2)n1 — IC50 (CTSL; enzyme activity, inhibitor, fluorescence): 60 nM
O=C(O)CCCC(=O)NNC(=O)c1cc2ccccc2cn1 — IC50 (Egl nine homolog 1 (EGLN1, Homo sapiens, UniProt Q9GZT9); inhibitor, AlphaScreen; bimodal curve, rough estimate, added: 2 µM 2-oxoglutarate): 24600 nM
O=C1C2=C(Nc3ccccc3SC2C2CC2)c2ccccc21 (racemic) — IC50 (Cytochrome b (MT-CYB, Homo sapiens, UniProt P00156); enzyme activity, inhibitor): 1090 nM
COc1cc(Oc2ccnc3cc(OC)c(C(N)=O)cc23)ccc1NC(=S)NC1CC1 — IC50 (KDR): 231 nM
N=C(N)NCCCC(N)C(=O)NCC(=O)NC(CCCNC(=N)NCCCSCC1OC(n2cnc3c(N)ncnc32)C(O)C1O)C(N)=O (centres unmarked) — IC50 (Protein arginine N-methyltransferase 7 (PRMT7, Homo sapiens, UniProt Q9NVM4); enzyme activity, inhibitor): 831 nM
COc1cc2nccc(Oc3ccc(NC(=S)NCc4cccnc4)c(Cl)c3)c2cc1C(N)=O — IC50 (KDR): 128 nM
Cc1cc(=O)[nH]c2ccc(OCCCC(=O)N3CCN(C)CC3)cc12 — IC50 (cGMP-inhibited 3',5'-cyclic phosphodiesterase 3A (PDE3A, Homo sapiens, UniProt Q14432); enzyme activity, inhibitor, FP): 3000 nM
O=C(O)CC[C@H](NC(=O)N[C@@H](CCCCNC(=O)CCCCCCC(=O)NCCCCNC(=O)CN1CCN(CC(=O)O)CCN(CC(=O)O)CCN(CC(=O)O)CC1)C(=O)O)C(=O)O — IC50 (Integrin alpha-V/beta-3 (Homo sapiens, UniProt P05106+P06756); ligand displacement in cells): > 10000 nM
COC(=O)C1=CNC=C(C(=O)OC)C1c1ccc(F)c(C(F)(F)F)c1 — IC50 (KCNN4; ion current, inside-out patch clamp; 140 mM K+, added: 1 µM free Ca2+): < 20 nM
COc1cnc(COc2ccc(F)c(F)c2)cc1-c1cc2c([nH]1)CCNC2=O — IC50 (Casein kinase I isoform gamma-3 (CSNK1G3, Homo sapiens, UniProt Q9Y6M4); target engagement in cells, BRET): 10 nM
COCCNC(=O)c1cc2c(Oc3ccc(NC(=S)NC4CC4)c(Cl)c3)ccnc2cc1OC — IC50 (KDR): 120 nM
CCCCCCCCCOc1c(CCCC(=O)O)cc(-c2ccc(C(=O)O)cc2)cc1CCCC(=O)O — IC50 (Tyrosine-protein phosphatase non-receptor type 11 (PTPN11, Homo sapiens, UniProt Q06124); enzyme activity, inhibitor, fluorescence): ~5000 nM
COc1cc2nccc(Oc3ccc(N4C(=O)CNC4=S)c(Cl)c3)c2cc1C(N)=O — IC50 (KDR): 68.1 nM
COc1cc2ncnc(Nc3ccc(Oc4ccccc4)c(C)c3C)c2cc1OC — IC50 (Dual specificity mitogen-activated protein kinase kinase 1 (MAP2K1, Oryctolagus cuniculus, UniProt P29678); cell-free assay): > 10000 nM
COCc1cc2c(cn1)CN(C(=O)Nc1nc(-c3ccc(F)cc3)ccc1N)C2 — IC50 (Polyamine deacetylase HDAC10 (HDAC10, Homo sapiens, UniProt Q969S8); deacetylase activity, inhibitor, recombinant enzyme): > 30000 nM
COc1cc2nccc(Oc3ccc(NC(=S)NCc4ccc(F)cc4)c(Cl)c3)c2cc1C(N)=O — IC50 (PDGFRB): 85.9 nM
CNc1ncc2cc(-c3c(F)ccc(NS(=O)(=O)c4cc(Cl)ccc4Cl)c3F)ccc2n1 — IC50 (eIF-2-alpha kinase GCN2 (EIF2AK4, Homo sapiens, UniProt Q9P2K8); kinase activity, inhibitor): 15 nM
CC(=O)C12NC(C)(C)CC1(C)C(=O)C1=C2c2c(c3c4n2C(C)(C)CC2=C4C4(CC(C)(C)NC(C)(C4)C2=O)CC3(C)C)C(=O)C(C)(C)N1 (single isomer, unassigned; (+)) — IC50 (Potassium voltage-gated channel subfamily A member 3 (KCNA3, Homo sapiens, UniProt P22001); ion current, inhibitor): 2200 nM and 4200 nM
CC[C@H](C)[C@H](NC(=O)[C@H](CC(C)C)NC(=O)[C@H](CCCNC(=N)N)NC(=O)c1ccc(CN2CCNCC2)c(O)c1)C(=O)N[C@@H](Cc1ccccc1)C(N)=O — IC50 (Cyclin-A2, with CDK2 (CCNA2, Homo sapiens, UniProt P20248); binding to cyclin groove, inhibitor, fluorescence polarization competition): 4560 ± 740 nM
CC(C)CCCn1c(CN2CCN(C(=O)C3CC3)CC2)nc2c1c(=O)n(C)c(=O)n2C — IC50 (ALDH1A1): 35 ± 10 nM
COc1cc2nccc(Oc3ccc(NC(=S)NCCCSC)c(Cl)c3)c2cc1C(N)=O — IC50 (PDGFRB): 19.7 nM
CCC1(CC)C(=O)N(c2cccc(CN3CCN(Cc4ccc(Br)cc4)CC3)c2)C1=O — IC50 (Dipeptidyl peptidase 8 (Homo sapiens, UniProt Q6V1X1); cell-free assay, inhibitor): 137 nM
COCC1CN(C2CCN(c3cc(OC)c(Nc4ncc(Br)c(Nc5ccc6c(c5P(C)(C)=O)OCCO6)n4)cc3C)CC2)C1 — IC50 (Epidermal growth factor receptor (EGFR, Homo sapiens, UniProt P00533, T790M); enzyme activity, inhibitor, TR-FRET): < 1.5 nM
NCCCCCCN1N=C(c2ccc(NC(=O)N3Cc4ccncc4C3)cc2)CC(c2cccc3ncccc23)C1=O (centres unmarked) — IC50 (Nicotinamide phosphoribosyltransferase (NAMPT, Homo sapiens, UniProt P43490); enzyme activity, inhibitor): 0.2 nM
Cc1cc(/N=N/c2ccc(/N=N/c3ccc(O)c(C(=O)O)c3)cc2)c(N)cc1N — IC50 (PH domain leucine-rich repeat-containing protein phosphatase 2 (Homo sapiens, UniProt Q6ZVD8); enzyme activity, inhibitor, absorbance): 4000 nM
CC1(C)C2CC3C(c4ccccc4)c4c(O)c(C=O)c(O)c(C=O)c4OC3(C)C1C2 (single isomer, unassigned; (+)) — IC50 (ATP-dependent 6-phosphofructokinase, liver type (PFKL, Homo sapiens, UniProt P17858); enzyme activity, inhibitor, coupled enzyme; HEK293T cell lysate; apparent): 2800 nM
O=C(NCc1ccccc1)c1cc(S(=O)(=O)NCc2ccccc2)ccc1Cl — IC50 (Ectonucleoside triphosphate diphosphohydrolase 2 (Homo sapiens, UniProt Q9Y5L3); enzyme activity, inhibitor, absorbance): 2240 nM
Cc1cccc(Cn2c(OC3CCN(C(=O)C4CC4)CC3)nc3c2c(=O)n(C)c(=O)n3C)c1F — IC50 (ALDH1A1): 131 ± 60 nM
O=S(=O)(Nc1ccc(Oc2ncccc2-c2ccnc(N[C@H]3CCCNC3)n2)cc1F)c1ccccc1Cl — IC50 (ERN1 RNase domain; RNase activity, inhibitor; added: XBP1 mini-substrate): 120 ± 10 nM
CC(C)=CCC1CC(=O)CC(C(C)(C)O)OC(=O)C23C(=C(C)C)OC(C)(C)C2CCC13C (centres unmarked) — IC50 (Beta-secretase 1 (Mus musculus, UniProt P56818); enzyme activity in cells, inhibitor): 136 nM
O=C(Nc1ccc(Cl)c(-c2nc3ncccc3o2)c1)c1cccs1 — IC50 (Nucleoside transporter 1 (Plasmodium vivax, UniProt A5K8B0); yeast growth; purine auxotrophic yeast expressing target; 15 to 17 h, added: adenosine 1 mM): 234 ± 41 nM
CCOC(=O)N1CCN(Cc2nc3c(c(=O)n(C)c(=O)n3C)n2CCC(C)C)CC1 — IC50 (Peroxisomal multifunctional enzyme type 2 (HSD17B4, Homo sapiens, UniProt P51659)): > 57000 nM
